# Measurements collected from several papers.
# A part holds a random share of what one study measured. Changes are numbered by the printed parent chain.

# Series 1
# Target: CCND3, cyclin fold, Cln2 fusion (human)
# Technique: yeast growth competition, sequencing
# Sample: yeast
# Notes: weak parent motif
# Relative to: not given
# Reading: higher = stronger binding
# Parent: HASPIN docking peptide (human); ASLRSVLFGLMNS
Variant,normalised enrichment score
ASLRSVLAGLMNS [F8A],-0.436
ASARSVLFGLMNS [L3A],-0.129
ASLRSVLFALMNS [G9A],-0.142
AALRSVLFGLMNS [S2A],-0.776
ASLRSVAFGLMNS [L7A],-0.11
ASLRSVLFGLMNA [S13A],-0.674

# Series 2
# Target: CEBPD, bZIP domain (human)
# Technique: DHFR protein complementation
# Sample: yeast
# Notes: single substitutions, most at no-binding floor
# Relative to: wild-type JUN-FOS pair
# Reading: higher = stronger binding
# Parent: JUN, bZIP domain (human); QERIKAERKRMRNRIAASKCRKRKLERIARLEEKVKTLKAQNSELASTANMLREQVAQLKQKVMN; partner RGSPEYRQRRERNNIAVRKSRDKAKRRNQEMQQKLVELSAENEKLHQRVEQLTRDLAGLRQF
Variant,binding fitness [natural log]
S47E,-1.33
T48F,-1.43
L52Y,-1.47
E33W,-1.41
K39G,-1.37
A29K,-1.35
L38R,-1.46
K39M,-1.32
E32Q,-1.34
Q41N,-1.38
T37R,-1.35
K34T,-1.41
N42G,-1.49
E54K,-1.31
L31F,-1.47
A40R,-1.38
E54P,-1.54
R53A,-1.02
L31W,-1.41
N42E,-1.49
M51D,-1.12
A49N,-1.54
A29P,-1.34
E44D,-1.53
A49E,-1.21

# Series 3
# Target: Ras GTPase-activating protein-binding protein 1, C-terminal RGG region (G3BP1, Homo sapiens, UniProt Q13283)
# Chain of UniProt Q13283 (whole entry, looked up): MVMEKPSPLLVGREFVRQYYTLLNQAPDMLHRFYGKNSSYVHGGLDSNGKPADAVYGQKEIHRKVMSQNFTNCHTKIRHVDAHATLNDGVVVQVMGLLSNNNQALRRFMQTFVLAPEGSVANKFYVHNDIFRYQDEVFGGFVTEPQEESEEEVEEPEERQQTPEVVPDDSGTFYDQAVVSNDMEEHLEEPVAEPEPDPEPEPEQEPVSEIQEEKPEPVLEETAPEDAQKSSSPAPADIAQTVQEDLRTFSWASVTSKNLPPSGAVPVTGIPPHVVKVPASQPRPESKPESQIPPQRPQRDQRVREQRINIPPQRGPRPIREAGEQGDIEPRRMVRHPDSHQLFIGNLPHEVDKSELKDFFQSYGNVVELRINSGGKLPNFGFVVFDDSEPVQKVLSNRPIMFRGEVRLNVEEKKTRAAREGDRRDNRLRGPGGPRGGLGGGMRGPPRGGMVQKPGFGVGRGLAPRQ
# Technique: RNA Bind-n-Seq
# Molecule type: RNA
# Sample: in vitro
# Concentration: 1 µM
# Notes: whole 134-nt RNA, ends assumed
# Together with: 150 mM KCl
# Relative to: input library
# Reading: higher = stronger binding
Sequence,log2 enrichment
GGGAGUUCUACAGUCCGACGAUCUCCUCAAGUCCUGUGCUACACAUCGUAUGUACCGAAUCGGUGGGUGGGUGGGAAAGUAUUAUGUUACGCCGUUCGGAUCUGCACUUCCAGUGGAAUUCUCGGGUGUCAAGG,1.58
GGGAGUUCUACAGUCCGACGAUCGUCCUGUGCUACACAUCGUAUGUACCGAAUCGGGGUUUUGGGUUUUGGGGUUUUGGGGAAAGUAUUAUGUUACGCCGUUCGGAUCUGCACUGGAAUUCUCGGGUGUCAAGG,0.415
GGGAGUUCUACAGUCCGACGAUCUGGGAGGUGGAUUUUGUCUAUUUUUUUAGCUCAUUUCCAGGGGUGGGAAUUUUUUUUUAAUAUGUGUCAUGAAUAAAGUUGUUUUUGAAAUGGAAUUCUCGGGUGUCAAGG,3.24
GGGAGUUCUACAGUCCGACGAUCUCCUGUGCUACACAUCGUAUGUACCGAAUCGGGAAAAAAGGGGAAAAAAGGAAAAAAGGAAAGUAUUAUGUUACGCCGUUCGGAUCUGCAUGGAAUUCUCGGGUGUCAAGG,-1.33
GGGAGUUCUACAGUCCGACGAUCAAGUCCUGUGCUACACAUCGUAUGUACCGAAUCGGAAAAAAAGGAAAAAGGAAAGGAAAGUAUUAUGUUACGCCGUUCGGAUCUGCACUUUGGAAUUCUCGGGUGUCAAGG,-2.18
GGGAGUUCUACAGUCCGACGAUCAGUCCUGUGCUACACAUCGUAUGUACCGAAUCGGGGAAAAAGGGGUUUGGGGUGGGGAAAGUAUUAUGUUACGCCGUUCGGAUCUGCACUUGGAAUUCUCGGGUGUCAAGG,2.57
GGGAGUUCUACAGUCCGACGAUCACCAUGCAGGUGGGCAUCUUUGGGAAGUGGGGCAAGGGGGGGAUAGGGAGGGGGGUAACACUUCGGGAACAGGUGGUCCCAGGUCGUUUCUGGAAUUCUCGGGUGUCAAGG,2.19
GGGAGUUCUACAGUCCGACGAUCCAAGUCCUGUGCUACACAUCGUAUGUACCGAAUCGGGUUUUGGUUUUGGGUUUUGGAAAGUAUUAUGUUACGCCGUUCGGAUCUGCACUUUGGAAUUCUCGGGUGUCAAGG,-1.78
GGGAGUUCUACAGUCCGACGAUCCACAGACAACCCGCACCCACACAGACACAGAGGGAAGGGGUUGGGAUGGGGACAGGGUGCACAGCAGGGCGGGGUAGGACCCCAGCCCCUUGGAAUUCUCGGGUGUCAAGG,-0.551
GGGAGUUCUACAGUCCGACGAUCGAGCUGGAAGCUAUCAAAGCUCGAGUCAGGGAGAUGGAGGAAGAAGCUGAGAAGCUAAAGGAGCUACAGAACGAGGUAGAGAAGCAGAUGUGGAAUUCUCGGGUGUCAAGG,-1.33
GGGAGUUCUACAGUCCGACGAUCUGUGCUACACAUCGUAUGUACCGAAUCGGGUUUUUUUGGGGUUUUUUUGGGGUUUUUUUGGGAAAGUAUUAUGUUACGCCGUUCGGAUCUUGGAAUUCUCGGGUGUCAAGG,-0.484
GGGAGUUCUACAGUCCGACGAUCCCUGUGCUACACAUCGUAUGUACCGAAUCGGGUUUUUUGGGGUUUUUUGGGUUUUUUGGGAAAGUAUUAUGUUACGCCGUUCGGAUCUGCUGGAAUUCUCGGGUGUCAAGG,-1.08
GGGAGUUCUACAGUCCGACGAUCCAAGUCCUGUGCUACACAUCGUAUGUACCGAAUCGGGUGGGAAAGGGUUUUUGGGAAAGUAUUAUGUUACGCCGUUCGGAUCUGCACUUCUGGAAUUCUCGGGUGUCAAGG,1.14
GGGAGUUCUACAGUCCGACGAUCUCCUGUGCUACACAUCGUAUGUACCGAAUCGGGGAAAAAAAGGGGAAAGGGGAAAGGGGAAAGUAUUAUGUUACGCCGUUCGGAUCUGCAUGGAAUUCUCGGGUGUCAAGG,2.68

# Series 4
# Target: Sal-like protein 4, full length isoform B (SALL4, Homo sapiens, UniProt Q9UJQ4-2, residues 1-616)
# Technique: universal PBM
# Molecule type: double-stranded DNA, one strand shown
# Sample: in vitro
# Concentration: not given
# Notes: 8-mer, flanks averaged, mean of replicates
# Reading: higher = stronger binding
Sequence,E-score
ACCGCTCT,-0.178
GCAGAAAC,0.0673
ACCCTAAG,-0.176
GCGGGATA,-0.1
GTTTGAGA,-0.0293
CTCCCCGA,-0.301
AACACGCT,0.00617
GAGGGTGA,-0.162
GGACTATA,0.229
GGCCTCGA,-0.237
AAGCAATC,0.106
GGTAATTA,0.195
GAAACGCC,-0.177
ATCTCAGG,-0.149
ACTCACTA,-0.0241
AATGTAGT,0.192
CATAGGTC,0.0612
ATCGAGCA,-0.107
ACGGGCCG,-0.402
CGTCTTTA,0.102
CAGGCCCA,-0.323
CGCTTTAC,0.0407
AAAACCTA,0.179
ACATGGCT,-0.00793
CTATCACC,-0.062

# Series 5
# Target: ABI1, truncated, D143A, DHFR fusion (Arabidopsis thaliana)
# Technique: DHFR PCA, deep sequencing
# Sample: yeast
# Notes: methotrexate growth selection, single substitutions
# Together with: (+)-ABA 17 µM
# Relative to: wild-type fitted maximum
# Reading: higher = stronger binding
# Parent: PYL1, truncated, DHFR fusion (Arabidopsis thaliana); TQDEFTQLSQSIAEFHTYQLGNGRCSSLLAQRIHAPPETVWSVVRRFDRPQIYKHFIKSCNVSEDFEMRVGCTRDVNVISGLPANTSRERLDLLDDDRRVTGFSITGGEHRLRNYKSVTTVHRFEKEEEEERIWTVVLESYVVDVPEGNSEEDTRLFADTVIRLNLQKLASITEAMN; partner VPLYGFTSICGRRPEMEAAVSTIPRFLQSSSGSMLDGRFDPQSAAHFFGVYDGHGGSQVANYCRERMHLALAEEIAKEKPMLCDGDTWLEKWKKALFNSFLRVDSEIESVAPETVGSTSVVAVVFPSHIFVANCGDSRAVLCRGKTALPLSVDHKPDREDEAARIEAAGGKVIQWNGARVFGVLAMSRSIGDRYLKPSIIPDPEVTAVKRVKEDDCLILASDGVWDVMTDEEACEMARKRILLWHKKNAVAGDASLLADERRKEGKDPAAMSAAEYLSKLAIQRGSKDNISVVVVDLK
Variant,relative binding score
R69L,66.4%
T101P,0.856%
T73L,78.9%
G71Y,-6.55%
D153Y,3.56%
D144N,48.5%
E147W,63.8%
V70G,22.5%
Y53V,2.17%
N22T,84.5%
E131I,81.3%
E152S,82.8%
V143Y,-10.7%
R32A,69.5%
Q51T,41.8%
G148I,-4.43%
E127Y,78.6%
Y18V,63.1%
V40Q,6.33%

# Other studies, line by line
# Technique: two-hybrid
# Relative to: out of 4 tests
# Reading: higher = firmer interaction
# T1: itself; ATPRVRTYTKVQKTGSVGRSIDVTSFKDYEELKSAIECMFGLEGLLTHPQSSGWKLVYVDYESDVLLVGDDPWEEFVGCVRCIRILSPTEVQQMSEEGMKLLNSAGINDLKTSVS
# T2: itself; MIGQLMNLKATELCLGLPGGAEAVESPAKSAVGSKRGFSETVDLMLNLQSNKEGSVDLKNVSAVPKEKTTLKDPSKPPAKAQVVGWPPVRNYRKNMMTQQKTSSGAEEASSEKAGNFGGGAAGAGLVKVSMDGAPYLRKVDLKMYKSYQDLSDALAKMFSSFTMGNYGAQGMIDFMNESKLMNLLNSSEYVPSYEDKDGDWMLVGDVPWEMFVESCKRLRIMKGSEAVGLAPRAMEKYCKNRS
# T3: itself; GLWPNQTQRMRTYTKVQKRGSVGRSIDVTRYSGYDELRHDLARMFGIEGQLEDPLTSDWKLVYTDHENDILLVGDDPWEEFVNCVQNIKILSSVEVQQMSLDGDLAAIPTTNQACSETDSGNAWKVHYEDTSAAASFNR
# T4: itself; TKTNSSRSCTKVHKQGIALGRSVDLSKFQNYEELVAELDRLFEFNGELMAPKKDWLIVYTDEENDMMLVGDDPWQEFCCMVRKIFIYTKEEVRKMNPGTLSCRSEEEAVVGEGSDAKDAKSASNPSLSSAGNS
# B1: ARF5 788-902 (Arabidopsis thaliana, UniProt P93024); chain ATPRVRTYTKVQKTGSVGRSIDVTSFKDYEELKSAIECMFGLEGLLTHPQSSGWKLVYVDYESDVLLVGDDPWEEFVGCVRCIRILSPTEVQQMSEEGMKLLNSAGINDLKTSVS
# B2: IAA7 (Arabidopsis thaliana, UniProt Q38825); chain MIGQLMNLKATELCLGLPGGAEAVESPAKSAVGSKRGFSETVDLMLNLQSNKEGSVDLKNVSAVPKEKTTLKDPSKPPAKAQVVGWPPVRNYRKNMMTQQKTSSGAEEASSEKAGNFGGGAAGAGLVKVSMDGAPYLRKVDLKMYKSYQDLSDALAKMFSSFTMGNYGAQGMIDFMNESKLMNLLNSSEYVPSYEDKDGDWMLVGDVPWEMFVESCKRLRIMKGSEAVGLAPRAMEKYCKNRS
# B3: ARF19 948-1086 (Arabidopsis thaliana, UniProt Q8RYC8); chain GLWPNQTQRMRTYTKVQKRGSVGRSIDVTRYSGYDELRHDLARMFGIEGQLEDPLTSDWKLVYTDHENDILLVGDDPWEEFVNCVQNIKILSSVEVQQMSLDGDLAAIPTTNQACSETDSGNAWKVHYEDTSAAASFNR
# B4: ARF2 727-859 (Arabidopsis thaliana, UniProt Q94JM3); chain TKTNSSRSCTKVHKQGIALGRSVDLSKFQNYEELVAELDRLFEFNGELMAPKKDWLIVYTDEENDMMLVGDDPWQEFCCMVRKIFIYTKEEVRKMNPGTLSCRSEEEAVVGEGSDAKDAKSASNPSLSSAGNS
Sequence,partner,positive tests
B1 (ARF5 788-902),"T1, itself",0
B2 (IAA7),"T2, itself",0
B3 (ARF19 948-1086),"T3, itself",0
B4 (ARF2 727-859),"T4, itself",0

# A few entries again (series 3):
Sequence,log2 enrichment
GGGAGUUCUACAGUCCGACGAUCCAAGUCCUGUGCUACACAUCGUAUGUACCGAAUCGGGUUUUGGUUUUGGGUUUUGGAAAGUAUUAUGUUACGCCGUUCGGAUCUGCACUUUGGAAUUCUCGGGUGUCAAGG,-1.78
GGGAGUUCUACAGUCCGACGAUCGAGCUGGAAGCUAUCAAAGCUCGAGUCAGGGAGAUGGAGGAAGAAGCUGAGAAGCUAAAGGAGCUACAGAACGAGGUAGAGAAGCAGAUGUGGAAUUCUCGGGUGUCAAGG,-1.33
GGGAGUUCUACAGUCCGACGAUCAAGUCCUGUGCUACACAUCGUAUGUACCGAAUCGGAAAAAAAGGAAAAAGGAAAGGAAAGUAUUAUGUUACGCCGUUCGGAUCUGCACUUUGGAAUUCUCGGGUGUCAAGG,-2.18
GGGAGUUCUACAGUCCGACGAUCAGUCCUGUGCUACACAUCGUAUGUACCGAAUCGGGGAAAAAGGGGUUUGGGGUGGGGAAAGUAUUAUGUUACGCCGUUCGGAUCUGCACUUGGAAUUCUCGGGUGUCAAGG,2.57
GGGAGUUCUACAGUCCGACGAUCUGUGCUACACAUCGUAUGUACCGAAUCGGGUUUUUUUGGGGUUUUUUUGGGGUUUUUUUGGGAAAGUAUUAUGUUACGCCGUUCGGAUCUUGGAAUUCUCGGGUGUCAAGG,-0.484
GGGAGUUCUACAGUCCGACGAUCUCCUGUGCUACACAUCGUAUGUACCGAAUCGGGAAAAAAGGGGAAAAAAGGAAAAAAGGAAAGUAUUAUGUUACGCCGUUCGGAUCUGCAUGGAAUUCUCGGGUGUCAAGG,-1.33
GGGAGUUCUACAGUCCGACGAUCCAAGUCCUGUGCUACACAUCGUAUGUACCGAAUCGGGUGGGAAAGGGUUUUUGGGAAAGUAUUAUGUUACGCCGUUCGGAUCUGCACUUCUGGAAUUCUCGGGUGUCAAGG,1.14
